Experimental data collected from several papers.
Every numbered part comes from another study and shows a few of its results, in no order. Changes are numbered by the printed parent chain.

Sample 1 — target: CCNE1, cyclin fold, Cln2 fusion (human); technique: yeast growth competition, sequencing; matrix: yeast; notes: weak parent motif; reference: not given; direction: higher = stronger binding
Starting sequence: SLBP docking peptide (human); ARYKRKLLINDFG
| Substitution | normalised enrichment score |
| --- | --- |
| ARYKRKLLIRDFG [N10R] | -0.0721 |
| ARYKRKLLINDPG [F12P] | 0.237 |
| ARYKRMLLINDFG [K6M] | 0.451 |
| ARYKRKLLRNDFG [I9R] | 0.705 |
| ARYKRDLLINDFG [K6D] | 0.204 |
| AVYKRKLLINDFG [R2V] | 0.575 |
| ARYKRKLLIKDFG [N10K] | 0.0569 |
| ARYKRKPLINDFG [L7P] | 0.387 |
| ARYKRKRLINDFG [L7R] | 0.0794 |
| ARYKRCLLINDFG [K6C] | 1.56 |
| ASYKRKLLINDFG [R2S] | 0.169 |
| ARYKRKLLINTFG [D11T] | 0.897 |
| ARDKRKLLINDFG [Y3D] | 0.702 |
| ATYKRKLLINDFG [R2T] | 1.42 |
| ARYKRKLLICDFG [N10C] | 0.608 |
| ARYKRKLLINDFQ [G13Q] | 0.37 |

Sample 2 — technique: protein binding microarray; form: double-stranded DNA, one strand shown; matrix: in vitro; concentration: not given; reference: not given; direction: higher = stronger binding
Target: Histone acetyltransferase KAT6A, winged helix 2, GST fusion (KAT6A, Homo sapiens, UniProt Q92794, residues 85-181)
Notes: 8-mer, flanks averaged, mean of 2 arrays, mostly near background
Target sequence (chain): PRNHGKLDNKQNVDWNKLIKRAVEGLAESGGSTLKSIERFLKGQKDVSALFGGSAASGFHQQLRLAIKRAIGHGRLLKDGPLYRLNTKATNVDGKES
| Sequence | E-score |
| --- | --- |
| AAATGATT | 0.0986 |
| CAAGCCGC | 0.0958 |
| CTATAGGC | -0.0384 |
| ACGAACGT | -0.0247 |
| ATACCGGG | -0.0105 |
| CCTTACCA | -0.196 |
| CCGGTAAC | 0 |
| CAATACGC | -0.148 |
| AGGAATAA | -0.0403 |
| CGATAACC | -0.137 |
| ACTGGCGC | 0.182 |
| ATTGGCCA | -0.00681 |
| ATCTTTGC | 0.116 |
| CAGGCGCA | 0.179 |
| AATACCCG | -0.012 |
| AAGACGCG | -0.0434 |
| AAATGGGC | -0.0449 |
| AAATTGAA | -0.0758 |
| ATACTTAC | 0.0121 |
| AAACATGC | -0.0657 |

Sample 3 — technique: RNA Bind-n-Seq; form: RNA; matrix: in vitro; concentration: not given; notes: RNA with constant flanks, ends assumed; reference: input RNA pool; direction: higher = stronger binding
Target: RING finger protein unkempt homolog, zinc fingers 1-6, GST-SBP tag (UNK, Homo sapiens, UniProt Q9C0B0, residues 30-357)
Sequence of UniProt Q9C0B0 (30-357, looked up): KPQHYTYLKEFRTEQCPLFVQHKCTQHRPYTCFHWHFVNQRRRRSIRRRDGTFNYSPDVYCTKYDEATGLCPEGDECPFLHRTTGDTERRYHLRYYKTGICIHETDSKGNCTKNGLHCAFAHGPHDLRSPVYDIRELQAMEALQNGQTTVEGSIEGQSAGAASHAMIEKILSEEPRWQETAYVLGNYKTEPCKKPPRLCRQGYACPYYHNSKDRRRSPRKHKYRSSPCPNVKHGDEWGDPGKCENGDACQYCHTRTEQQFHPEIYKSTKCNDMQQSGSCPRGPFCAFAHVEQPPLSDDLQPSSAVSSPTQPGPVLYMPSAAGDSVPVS
Constant ends, left off below: GGGAGUUCUACAGUCCGACGAUC … CAACAGAGGAUUGAGCAUCA
| Sequence | bound/input enrichment |
| --- | --- |
| AUCUGUAAUUUCAGUCUCUUUUUUUCUGAAAUACAUUAUAUUGUAUGUUUGAGAUAAUUCCCGUACAAAGUAUAAUAAACUAGAUGUAUAAUAAACCCUUUAAAUCAUUGCUAAGUGUAU | 5.16 ratio |
| CUCUAUGGGCCUCGCAGAGUUGAAAUAAUGGAAGAGGAAAGUGAACAGUAAUCUUCAUUUCCGUAUUUAUGCUUAGAUGUGAAAAUAAAUGUUAUUUGUUGAUCAUUUCUAUAAUCCAGA | 0.171 ratio |
| AGGAGUGAUGUAAUGGAGCUCCUUAAGAAGUCGGCCGAGGAAAGAAAACCUUAAAGGGACACCCGUGUGAUGCUUUGUCUUAAUGUGGGUUUUUCUGUUUCAGUUUGCCACCUCCAGAUG | 0.169 ratio |
| AAGUCAGCAGCUGAGGUGGAGGAAGCACCUUCCCCUGAAGACAAUGUCUAUUUCGGAACUACCCGUGACGAUUCGGAUAUUGUUACACUUGAACCACCUAAGCUGGAAGAAAUGGGGAAC | 0.13 ratio |
| AUGGAGAUGUAUCAACCUAGUGCUGUGGUAUUACAGUGUGGUGCAGACUCAUUAUCUGGUGACCGACUGGGUUGUUUCAAUCUAACAGUCAAAGGUCAUGCUAAAUGUGUAGAAGUUGUA | 0.33 ratio |
| AUGUGGUAUCGUUUACGGUUAUUAAAACCCCAGCCAAAUAUUAUUCCUACAGUAAAGAAAACCGUUCUGCUUGCAGGAUGGGCACUGUUCUUAUUUCUUGCAUACAAAGUUUCCAAAACA | 0.175 ratio |
| AUUUAAAAUUCCAGUAGUUAUAUUUAAUGAUCUCACCCCUGAGUUUCUUUUUCAUUAAAGCCGCUUUCAUUUCUAUUAUUCCAAUUUACUGAUAUGAACAAAUAGAAGGUCCGUGUGAGC | 10.4 ratio |
| CGUGGUGUUUCCUUUACUUUUGGAGCUGAUGUAGUCAGUAAAUUUCUGAAUCGUCAUGAUUCCGAUUUGAUUUGUCGAGCUCAUCAGGUGGUGGAAGAUGGAUAUGAAUUUUUUGCUAAA | 0.122 ratio |
| CCAAUCGUGGAGCAGUACUUGAAGACAAAAAAGAACUCUAGUCAUUUAAUCAUGAAAUACAUCCGCUGCCGGCUGGUGACAUUUGUGGUUAUACUGUUGGCAUGUAUCUACUUGAGCUAU | 0.195 ratio |
| ACACCUUUGGCCAACAUUUCUUCUGAGUAUCCAAUGCAAAGAUCCAUGCCAGUGGUGCCAUCUUUUGCCGCCAGCAACAGAGCAGAUGAAAAUGCCGCUGCAUACUUUGAGAGUCCUAAU | 0.192 ratio |
| AUUACUGUCUUGCUGAUCUUGCAUCUUUAAUGGAUAAAACAUUUGAGAGAAAGUUGCCUGUCCGUUCUUUAACAAUAUCACGGCUUAUAGACAACAUUUCCUCUCGGGAAGAGAUAGAUC | 0.33 ratio |

Sample 4 — technique: protein-binding microarray; form: double-stranded DNA, one strand shown; matrix: in vitro; concentration: 250 nM; notes: 60-bp whole probe; with: salmon DNA 0.4 mg/ml; reference: random background probes; direction: higher = stronger binding; constant ends, left off below: GCCTAGCAC … GTCTTGATTCGCTTGACGCTGCTG
Target: Interferon regulatory factor 7, full length, phosphomimetic (IRF7, Homo sapiens, UniProt Q92985, residues 1-503, S101K/S471D/S472D/S475D/S476D/S477D/S483D/S484D/S487D)
Sequence of UniProt Q92985 (whole entry, unmodified, looked up): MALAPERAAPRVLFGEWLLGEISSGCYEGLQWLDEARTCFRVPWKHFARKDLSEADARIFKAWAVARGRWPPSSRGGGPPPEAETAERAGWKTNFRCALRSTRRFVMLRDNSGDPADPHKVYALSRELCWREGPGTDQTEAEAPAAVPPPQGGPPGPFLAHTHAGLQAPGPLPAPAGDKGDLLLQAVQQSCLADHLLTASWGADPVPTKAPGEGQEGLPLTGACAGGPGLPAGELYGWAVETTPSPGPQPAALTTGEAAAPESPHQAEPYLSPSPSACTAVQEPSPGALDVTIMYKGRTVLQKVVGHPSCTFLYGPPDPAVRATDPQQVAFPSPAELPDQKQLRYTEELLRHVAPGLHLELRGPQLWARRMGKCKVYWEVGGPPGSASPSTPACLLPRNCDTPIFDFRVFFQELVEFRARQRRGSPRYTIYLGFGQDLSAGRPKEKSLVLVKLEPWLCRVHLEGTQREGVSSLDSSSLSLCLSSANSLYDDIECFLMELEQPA
| Sequence | log fluorescence |
| --- | --- |
| TCAACTCTCTAATTTTGAGAGTGCTAG | 0.0675 z-score |
| ATTGCTTCCTCTTTTTTGTTGTGCTAG | 0.752 z-score |
| GACGATTTCAGAGTGGAGACGTGCTAG | -0.225 z-score |
| GACGATATCCGGTATCGAGACGTGCTA | 0.352 z-score |
| TTAGGTTTCGACTATCGATTAGTGCTA | 6.05 z-score |
| GACGAACTGAGACTGGTGACGTGCTAG | -0.324 z-score |
| GGATGTCTGTAGCTCATTCTGTGCTAG | -0.456 z-score |
| TTCTGAATGCCCTCTAACTTCGTGCTA | -0.351 z-score |
| TTTGGTTTCGGGTATCGGTTAGTGCTA | 8.96 z-score |
| TTAGATTGCAGTTTCGATTAGTGCTAG | 7.74 z-score |
| GAGGGTATCGACTATCGGGACGTGCTA | -0.606 z-score |
| GACGGTTTCAACTTTCGGGACGTGCTA | 1.61 z-score |
| TTAGGTATGCTACTGCTTTAGTGCTAG | -0.594 z-score |
| TTAGATTTCCTTTTCCTTTAGTGCTAG | 2.45 z-score |
| TTGGGACTGCTTTTCCTTTAGTGCTAG | 1.29 z-score |
| TTAGAACTGTGTATCGATTAGTGCTAG | 0.102 z-score |
| TTAGAACTGGGTTTCGATTAGTGCTAG | 7.46 z-score |
| GACGGTCTCCTTCTCGTGACGTGCTAG | 0.0535 z-score |
| GATGGTTTCGACTATCGGGACGTGCTA | 6.52 z-score |
| TTAGGTCTCCTTATCCCTTAGTGCTAG | 0.475 z-score |
| GACGATATCGGTTATCGAGACGTGCTA | 0.197 z-score |
| TTAGGTATCCTTTTCCCTTAGTGCTAG | 1.94 z-score |
| GACGGTTCCGGTCTCGGGACGTGCTAG | 1.17 z-score |
| TCATTTTTTAGCTTCTCACTGTGCTAG | 0.717 z-score |
| TTAGGTTCCCTTTTCCCTTAGTGCTAG | 4.37 z-score |
